Experimental data from different studies.
Lines come from different studies, so protocols differ. Values joined by “and” are separate records of one study, mostly repeats; a detail may differ. ± gives the spread as reported.
B1: NUP60 200-318 (Saccharomyces cerevisiae, UniProt P39705); sequence looked up; chain SMNTTLGSIGSRKYSFNYSSLPSPYKTTVYRYSAAKKIPDTYTANTSAQSIASAKSVRSGVSKSAPSKKISNTAAALVSLLDENDSKKNNAASELANPYSSYVSQIRKHKRVSPNAAPR
B2: Ap2s1 1-142 H96C (Mus musculus, UniProt P62743); chain MIRFILIQNRAGKTRLAKWYMQFDDDEKQKLIEEVHAVVTVRDAKHTNFVEFRNFKIIYRRYAGLYFCICVDVNDNNLAYLEAIHNFVEVLNEYFCNVCELDLVFNFYKVYTVVDEMFLAGEIRETSQTKVLKQLLMLQSLE
B3: CDCA7 (Homo sapiens, UniProt Q9BWT1); sequence looked up; chain MDARRVPQKDLRVKKNLKKFRYVKLISMETSSSSDDSCDSFASDNFANTRLQSVREGCRTRSQCRHSGPLRVAMKFPARSTRGATNKKAESRQPSENSVTDSNSDSEDESGMNFLEKRALNIKQNKAMLAKLMSELESFPGSFRGRHPLPGSDSQSRRPRRRTFPGVASRRNPERRARPLTRSRSRILGSLDALPMEEEEEEDKYMLVRKRKTVDGYMNEDDLPRSRRSRSSVTLPHIIRPVEEITEEELENVCSNSREKIYNRSLGSTCHQCRQKTIDTKTNCRNPDCWGVRGQFCGPCLRNRYGEEVRDALLDPNWHCPPCRGICNCSFCRQRDGRCATGVLVYLAKYHGFGNVHAYLKSLKQEFEMQA
B4: ATG9 1-100 (Saccharomyces cerevisiae, UniProt Q12142); sequence looked up; chain MERDEYQLPNSHGKNTFLSRIFGLQSDEVNPSLNSQEMSNFPLPDIERGSSLLHSTNDSREDVDENDLRVPESDQGTSTEEEDEVDEEQVQAYAPQISDG
B5: ABCG16 1-145 (Arabidopsis thaliana, UniProt Q9M2V7); sequence looked up; chain MSRILVEDDNATPFHSMEIISSSLTLGQLLKNVSDVRKVEVGDETPVHEFFDRDGSSLDGDNDHLMRPVPFVLSFNNLTYNVSVRRKLDFHDLVPWRRTSFSKTKTLLDNISGETRDGEILAVLGASGSGKSTLIDALANRIAKG
B6: POL32 1-103 (Saccharomyces cerevisiae, UniProt P47110); sequence looked up; chain MDQKASYFINEKLFTEVKPVLFTDLIHHLKIGPSMAKKLMFDYYKQTTNAKYNCVVICCYKDQTIKIIHDLSNIPQQDSIIDCFIYAFNPMDSFIPYYDIIDQ
B7: EFR3B 716-787 (Homo sapiens, UniProt Q9Y2G0); chain VPAEEITYETLKKAIVDSVAVEEQERERRRQVVEKFQKAPFEEIAAHCGARASLLQSKLNQIFEITIRPPPS
B8: Notch1 221-526 (Mus musculus, UniProt Q01705); sequence looked up; chain PCSPSPCQNGGTCRPTGDTTHECACLPGFAGQNCEENVDDCPGNNCKNGGACVDGVNTYNCRCPPEWTGQYCTEDVDECQLMPNACQNGGTCHNTHGGYNCVCVNGWTGEDCSENIDDCASAACFQGATCHDRVASFYCECPHGRTGLLCHLNDACISNPCNEGSNCDTNPVNGKAICTCPSGYTGPACSQDVDECALGANPCEHAGKCLNTLGSFECQCLQGYTGPRCEIDVNECISNPCQNDATCLDQIGEFQCICMPGYEGVYCEINTDECASSPCLHNGHCMDKINEFQCQCPKGFNGHLCQ
B9: CCDC32 101-179 (Mus musculus, UniProt Q8BS39); chain LRTLAQAKKECWDRFLQEKLASEFFVDGLDSDERTLEHFKRWLQPDKVAISTEEVQFLIPPESQAEKPEAGDKPAAAEQ
B10: RAB12 GppNHp-bound 36-211 Q101L (Homo sapiens, UniProt Q6IQ22-2); chain PRPADFKLQVIIIGSRGVGKTSLMERFTDDTFCEACKSTVGVDFKIKTVELRGKKIRLQIWDTAGLERFNSITSAYYRSAKGIILVYDITKKETFDDLPKWMKMIDKYASEDAELLLVGNKLDCETDREITRQQGEKFAQQITGMRFCEASAKDNFNVDEIFLKLVDDILKKMPLD
B11: INF2 941-1249 (Homo sapiens, UniProt Q27J81-1); FITC label; chain KQQLAEEEARRPRGEDGKPVRKGPGKQEEVCVIDALLADIRKGFQLRKTARGRGDTDGGSKAASMDPPRATEPVATSNPAGDPVGSTRCPASEPGLDATTASESRGWDLVDAVTPGPQPTLEQLEEGGPRPLERRSSWYVDASDVLTTEDPQCPQPLEGAWPVTLGDAQALKPLKFSSNQPPAAGSSRQDAKDPTSLLGVLQAEADSTSEGLEDAVHSRGARPPAAGPGGDEDEDEEDTAPESALDTSLDKSFSEDAVTDSSGSGTLPRARGRASKGTGKRRKKRPSRSQEEVPPDSDDNKTKKLCVIQ
B12: ND4L 1-89 (Yarrowia lipolytica, UniProt Q9B6D4); sequence looked up; chain MFIGTIILVLSFLGFVFNRRNIILAFICLETMLLGINLILLRNSVLFDDISGSLFAIVIIILAGVESAIGLSLLVSYYRLRGVINSYGI
Sequence of UniProt Q64663 (whole entry, unmodified, looked up): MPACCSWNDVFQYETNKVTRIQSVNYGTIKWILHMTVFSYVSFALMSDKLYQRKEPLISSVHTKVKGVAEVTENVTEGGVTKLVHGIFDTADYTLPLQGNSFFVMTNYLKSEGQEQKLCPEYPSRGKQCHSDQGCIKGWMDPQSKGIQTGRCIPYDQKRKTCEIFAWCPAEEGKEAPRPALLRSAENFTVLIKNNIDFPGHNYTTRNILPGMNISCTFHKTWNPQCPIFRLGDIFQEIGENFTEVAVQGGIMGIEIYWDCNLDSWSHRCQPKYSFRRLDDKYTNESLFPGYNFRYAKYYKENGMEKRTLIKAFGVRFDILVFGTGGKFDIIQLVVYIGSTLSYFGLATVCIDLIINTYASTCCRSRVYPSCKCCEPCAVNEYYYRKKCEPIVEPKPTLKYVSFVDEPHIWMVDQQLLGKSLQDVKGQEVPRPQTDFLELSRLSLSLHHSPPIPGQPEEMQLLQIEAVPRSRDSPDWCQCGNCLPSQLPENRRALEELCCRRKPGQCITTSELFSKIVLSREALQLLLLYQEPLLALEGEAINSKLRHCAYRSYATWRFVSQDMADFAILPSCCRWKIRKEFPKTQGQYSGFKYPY
Sequence of UniProt O32080 (whole entry, looked up): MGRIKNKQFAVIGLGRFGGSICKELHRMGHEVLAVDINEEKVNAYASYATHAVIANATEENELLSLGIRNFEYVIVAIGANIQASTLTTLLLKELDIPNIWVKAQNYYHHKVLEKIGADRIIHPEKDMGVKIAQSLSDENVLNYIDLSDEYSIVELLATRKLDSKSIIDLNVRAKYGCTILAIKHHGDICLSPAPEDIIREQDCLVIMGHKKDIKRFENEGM
Sequence of UniProt P84090 (whole entry, unmodified, looked up): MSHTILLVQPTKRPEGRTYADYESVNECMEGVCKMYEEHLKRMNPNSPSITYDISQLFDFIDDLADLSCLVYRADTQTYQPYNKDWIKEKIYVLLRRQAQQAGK
Sequence of UniProt F4HQA1 (whole entry, looked up): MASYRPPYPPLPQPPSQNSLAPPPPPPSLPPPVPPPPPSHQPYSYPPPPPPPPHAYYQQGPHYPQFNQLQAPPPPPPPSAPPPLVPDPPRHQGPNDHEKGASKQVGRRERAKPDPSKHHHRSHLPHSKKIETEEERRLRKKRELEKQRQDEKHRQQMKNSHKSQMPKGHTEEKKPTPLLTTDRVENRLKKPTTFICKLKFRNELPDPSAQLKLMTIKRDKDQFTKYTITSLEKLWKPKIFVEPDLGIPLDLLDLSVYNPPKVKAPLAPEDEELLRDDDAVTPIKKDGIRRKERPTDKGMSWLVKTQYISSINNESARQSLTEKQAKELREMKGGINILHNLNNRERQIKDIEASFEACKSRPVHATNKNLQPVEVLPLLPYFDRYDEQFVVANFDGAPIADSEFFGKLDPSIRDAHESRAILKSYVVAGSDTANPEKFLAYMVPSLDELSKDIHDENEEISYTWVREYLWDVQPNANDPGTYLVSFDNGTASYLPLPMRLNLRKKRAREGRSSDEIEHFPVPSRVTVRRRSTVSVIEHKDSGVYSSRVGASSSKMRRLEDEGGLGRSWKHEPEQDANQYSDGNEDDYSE
Sequence of UniProt P09980 (whole entry, looked up): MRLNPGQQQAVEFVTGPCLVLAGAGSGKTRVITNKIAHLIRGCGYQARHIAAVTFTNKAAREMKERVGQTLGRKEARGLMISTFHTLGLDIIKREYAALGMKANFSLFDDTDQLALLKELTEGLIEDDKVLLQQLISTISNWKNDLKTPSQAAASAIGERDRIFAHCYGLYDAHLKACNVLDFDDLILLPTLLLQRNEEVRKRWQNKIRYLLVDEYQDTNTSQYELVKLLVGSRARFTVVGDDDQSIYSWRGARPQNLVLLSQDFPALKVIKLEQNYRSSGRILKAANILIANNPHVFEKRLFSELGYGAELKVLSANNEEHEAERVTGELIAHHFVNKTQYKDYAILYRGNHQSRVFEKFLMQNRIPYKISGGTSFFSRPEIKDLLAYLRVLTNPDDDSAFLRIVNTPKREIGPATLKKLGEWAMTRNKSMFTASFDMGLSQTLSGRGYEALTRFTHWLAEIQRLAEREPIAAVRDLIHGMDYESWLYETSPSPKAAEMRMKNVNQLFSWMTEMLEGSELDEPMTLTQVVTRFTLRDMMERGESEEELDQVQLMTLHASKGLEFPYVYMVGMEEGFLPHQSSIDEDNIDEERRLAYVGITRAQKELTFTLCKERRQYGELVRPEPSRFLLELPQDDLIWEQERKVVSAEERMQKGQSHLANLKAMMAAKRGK
Sequence of UniProt P39760 (whole entry, looked up): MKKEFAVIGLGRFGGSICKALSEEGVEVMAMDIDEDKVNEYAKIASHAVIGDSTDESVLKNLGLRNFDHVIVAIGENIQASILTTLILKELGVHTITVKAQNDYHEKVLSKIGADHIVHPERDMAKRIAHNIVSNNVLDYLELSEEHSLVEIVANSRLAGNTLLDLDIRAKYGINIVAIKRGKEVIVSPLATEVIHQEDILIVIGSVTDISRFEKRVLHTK
Sequence of UniProt Q9NR61 (whole entry, unmodified, looked up): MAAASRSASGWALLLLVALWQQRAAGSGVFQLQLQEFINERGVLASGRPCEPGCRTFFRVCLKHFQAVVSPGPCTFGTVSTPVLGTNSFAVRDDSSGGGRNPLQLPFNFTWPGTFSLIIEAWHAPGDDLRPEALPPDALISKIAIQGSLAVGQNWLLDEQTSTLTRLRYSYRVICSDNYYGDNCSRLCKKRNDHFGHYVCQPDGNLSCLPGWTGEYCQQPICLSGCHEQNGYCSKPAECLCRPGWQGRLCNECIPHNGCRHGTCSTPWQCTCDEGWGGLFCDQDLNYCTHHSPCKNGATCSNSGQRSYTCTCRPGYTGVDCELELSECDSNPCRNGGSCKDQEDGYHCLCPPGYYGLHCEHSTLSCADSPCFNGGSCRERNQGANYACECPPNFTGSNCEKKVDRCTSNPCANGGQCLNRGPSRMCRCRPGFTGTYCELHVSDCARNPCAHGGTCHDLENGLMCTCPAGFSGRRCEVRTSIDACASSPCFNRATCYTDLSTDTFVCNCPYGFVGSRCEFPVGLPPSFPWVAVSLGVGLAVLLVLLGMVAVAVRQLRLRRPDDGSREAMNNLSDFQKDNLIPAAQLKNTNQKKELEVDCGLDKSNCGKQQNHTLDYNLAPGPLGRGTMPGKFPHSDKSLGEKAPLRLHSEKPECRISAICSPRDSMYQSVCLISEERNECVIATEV
Sequence of UniProt Q9M2Z1 (whole entry, looked up): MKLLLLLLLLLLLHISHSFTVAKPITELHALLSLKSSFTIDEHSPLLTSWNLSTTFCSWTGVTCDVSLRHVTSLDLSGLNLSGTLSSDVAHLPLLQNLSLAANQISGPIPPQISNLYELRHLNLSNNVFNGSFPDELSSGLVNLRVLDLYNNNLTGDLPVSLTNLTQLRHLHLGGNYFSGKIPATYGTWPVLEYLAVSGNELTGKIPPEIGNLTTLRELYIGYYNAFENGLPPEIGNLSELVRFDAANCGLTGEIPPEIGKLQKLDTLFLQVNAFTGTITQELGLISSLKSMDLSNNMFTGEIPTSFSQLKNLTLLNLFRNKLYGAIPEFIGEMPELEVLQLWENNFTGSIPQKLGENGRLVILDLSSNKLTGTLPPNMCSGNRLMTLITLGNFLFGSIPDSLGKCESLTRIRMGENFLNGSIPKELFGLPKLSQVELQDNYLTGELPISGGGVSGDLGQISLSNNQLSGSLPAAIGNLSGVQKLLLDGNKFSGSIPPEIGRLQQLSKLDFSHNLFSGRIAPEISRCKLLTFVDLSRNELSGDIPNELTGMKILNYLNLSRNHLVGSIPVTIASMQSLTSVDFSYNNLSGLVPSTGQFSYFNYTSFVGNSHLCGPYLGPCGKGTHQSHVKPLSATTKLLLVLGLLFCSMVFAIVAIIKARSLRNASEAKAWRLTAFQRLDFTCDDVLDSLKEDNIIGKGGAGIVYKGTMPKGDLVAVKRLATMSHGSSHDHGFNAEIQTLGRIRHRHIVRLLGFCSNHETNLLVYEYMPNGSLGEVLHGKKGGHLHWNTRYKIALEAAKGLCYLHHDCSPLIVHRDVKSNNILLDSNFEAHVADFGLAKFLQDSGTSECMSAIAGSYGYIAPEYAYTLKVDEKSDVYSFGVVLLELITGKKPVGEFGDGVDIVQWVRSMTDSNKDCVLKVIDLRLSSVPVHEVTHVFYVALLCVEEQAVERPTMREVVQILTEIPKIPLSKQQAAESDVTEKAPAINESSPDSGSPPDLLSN
Sequence of UniProt Q9Z0F4 (whole entry, looked up): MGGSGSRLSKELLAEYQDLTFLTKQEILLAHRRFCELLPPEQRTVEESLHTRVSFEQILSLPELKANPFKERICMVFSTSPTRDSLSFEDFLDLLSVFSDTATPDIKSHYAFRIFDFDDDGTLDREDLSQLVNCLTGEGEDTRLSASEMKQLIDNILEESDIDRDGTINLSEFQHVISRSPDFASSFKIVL
Sequence of UniProt Q9B6C8 (whole entry, looked up): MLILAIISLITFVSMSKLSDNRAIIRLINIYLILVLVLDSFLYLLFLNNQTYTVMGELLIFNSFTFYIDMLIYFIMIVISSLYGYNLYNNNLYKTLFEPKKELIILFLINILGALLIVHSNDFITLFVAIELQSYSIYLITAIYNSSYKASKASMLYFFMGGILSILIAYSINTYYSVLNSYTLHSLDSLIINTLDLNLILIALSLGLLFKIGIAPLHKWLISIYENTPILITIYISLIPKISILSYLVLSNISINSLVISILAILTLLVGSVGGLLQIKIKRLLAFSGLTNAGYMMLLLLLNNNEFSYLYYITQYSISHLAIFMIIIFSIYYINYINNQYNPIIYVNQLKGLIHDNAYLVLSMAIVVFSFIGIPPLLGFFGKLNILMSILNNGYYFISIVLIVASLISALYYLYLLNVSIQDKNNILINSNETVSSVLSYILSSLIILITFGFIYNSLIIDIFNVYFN

| Molecule | tested on | test | test system | setting | scale | measurement | result |
| --- | --- | --- | --- | --- | --- | --- | --- |
| KtrC (Bacillus subtilis, UniProt P39760) | ktrA (Bacillus subtilis, UniProt O32080) | pull-down | – | without c-di-AMP, in vitro | – | binding | binds |
| caspofungin | – | – | adult ICU patients, mITT, serum | dose not given, Follow-up | – | alkaline phosphatase | 166 U/L |
| B1 (NUP60 200-318) | NUP133/NUP84/SEC13/NUP145/SEH1/NUP85/NUP120 (Saccharomyces cerevisiae) | pull-down | – | – | – | binding | binds |
| RQIVDAQAVCTRCKESADFWCFECEQLLCAKCFEAHQWFLKHEARPLAE (PML 120-168 (Homo sapiens, UniProt P29590); sequence looked up) | UBE2I (Homo sapiens, UniProt P63279) | SEC | – | – | – | binding | binds |
| 11-deoxycorticosterone | CYP11B2 (human) | substrate binding, stopped-flow global kinetic fitting | purified enzyme | 3-state induced fit model, with: no adrenodoxin | – | rate constant k-1 | 66.2 ± 2.24 s⁻¹ |
| B2 (Ap2s1 1-142 H96C) | AP2M1 μ2 subunit 1-435 V306C (Mus musculus, UniProt P84091) | cross-linking | – | – | – | binding | binds |
| B3 (CDCA7) | HELLS 1-814 (Homo sapiens, UniProt Q9NRZ9) | SEC | – | – | – | binding | binds |
| B4 (ATG9 1-100) | ATG23 L323R (Saccharomyces cerevisiae, UniProt Q06671) | pull-down | – | 15 minutes, 4 °C | – | binding | binds |
| ESVASHFALVTAYEDIKKRLKDSEKENSLLKKRIRFLEEKLIA (AZI2 33-75 (Homo sapiens, UniProt Q9H6S1)) | CALCOCO2 1-316 (Homo sapiens, UniProt Q13137) | AUC (sedimentation velocity) | – | – | – | binding | binds |
| LVLAMWKAGFFKRNR (ITGA2B cytoplasmic tail) | Cib1 (Mus musculus, UniProt Q9Z0F4) | ELISA | peptide | – | – | binding | binds |
| PRTARHAPAVRKFSPDLKLLKDVKISVSFTE (DGCR8(96-126), SUMO-tagged) | Enhancer of rudimentary homolog (Homo sapiens, UniProt P84090, L64A) | binding, isothermal titration calorimetry | peptide | 293 K, with: DGCR8 peptide, SUMO-tagged | – | Kd | 34.2 ± 14 µM |
| B5 (ABCG16 1-145) | BAM2 691-961 (Arabidopsis thaliana, UniProt Q9M2Z1) | pull-down | – | – | – | binding | binds |
| rep (Escherichia coli, UniProt P09980) | polB full length, N-terminal FLAG (Escherichia coli, UniProt P21189) | pull-down | – | – | – | binding | binds |
| Peginesatide | UT7/EPO | RT-qPCR, item: FOS | – | concentration not given, 90 min, normalized to HPRT1 | relative to: vehicle | mRNA level | 5.9 fold |
| FGA (Homo sapiens, UniProt P02671) | ARB2A (Homo sapiens, UniProt Q8WUF8) | cross-linking MS | – | with: DSSO | – | cross-linked residues | K71 to K235 |
| B6 (POL32 1-103) | POL31 (Saccharomyces cerevisiae, UniProt P46957) | SAXS | – | – | – | binding | binds |
| B7 (EFR3B 716-787) | TTC7A/FAM126B FAM126B 1-308 | BLI | – | – | – | binding | binds |
| Polymyxin B | – | untargeted LC-MS metabolomics, item: acetyl-CoA | Sprague-Dawley rat, right cerebral cortex | intracerebroventricular, 0.75 mg/kg, 1 h | relative to: NaCl control | log2 fold change | -3.8 |
| B8 (Notch1 221-526) | DLL4 27-400 N257P/T271L/F280Y/S301R/Q305P (Homo sapiens, UniProt Q9NR61) | SPR | – | – | – | binding | binds |
| B9 (CCDC32 101-179) | Ap2m1 122-435 (Mus musculus, UniProt P84091) | pull-down | – | – | – | binding | binds |
| BzATP | P2X purinoceptor 7 (P2rx7, Rattus norvegicus, UniProt Q64663, Q143A) | ion current, agonist, two-electrode voltage clamp | Xenopus oocytes | 0.14 µM | – | normalized current | 0.0123 and 0.023 and 0.056 |
| TKQTARKSTGGKA (H3 peptide residues 3-x 4-16 (UniProt P68431); K9me3) | CBX7 8-62 L49D/D50C (Homo sapiens, UniProt O95931) | array | peptide | – | – | binding | binds |
| KESALRKQDLILLFDPLLR (TACC3 to 568 550-568 S558D/Y560I/K562L (Homo sapiens, UniProt Q9Y6A5); sequence looked up) | CLTC 358-574 (Homo sapiens, UniProt Q00610) | peptide array | peptide | – | – | binding | binds |
| B10 | LRRK2 (Homo sapiens, UniProt Q5S007) | cryo-EM | – | with: GppNHp | – | binding | binds |
| PAF1 (Arabidopsis thaliana, UniProt F4HQA1) | NPR1 (Arabidopsis thaliana, UniProt P93002) | pull-down | – | – | – | binding | binds |
| ASPRRR (phosphopeptide; N-acetyl, pS2, C-terminal amide) | Cdc14a 1-345 C278S (Mus musculus, UniProt Q6GQT0-1) | crystal structure | peptide | – | – | binding | binds |
| B11 (INF2 941-1249) | INF2 1-420 (Homo sapiens, UniProt Q27J81) | FP | – | – | – | binding | binds |
| B12 (ND4L 1-89) | ND2 1-469 (Yarrowia lipolytica, UniProt Q9B6C8) | cryo-EM | – | – | – | binding | binds |
| ALB (Homo sapiens, UniProt P02768) | ZFP69B (Homo sapiens, UniProt Q9UJL9) | cross-linking MS | – | with: DSSO | – | cross-linked residues | K298 to K191 |
| colistin | Pseudomonas aeruginosa | broth microdilution | clinical isolate RKI 483/15-1 | – | – | MIC | 8 µg/mL |

A few entries again:
| Molecule | tested on | test | test system | setting | scale | measurement | result |
| --- | --- | --- | --- | --- | --- | --- | --- |
| TKQTARKSTGGKA (H3 peptide residues 3-x 4-16 (UniProt P68431); K9me3) | CBX7 8-62 L49D/D50C (Homo sapiens, UniProt O95931) | array | peptide | – | – | binding | binds |
| PRTARHAPAVRKFSPDLKLLKDVKISVSFTE (DGCR8(96-126), SUMO-tagged) | Enhancer of rudimentary homolog (Homo sapiens, UniProt P84090, L64A) | binding, isothermal titration calorimetry | peptide | 293 K, with: DGCR8 peptide, SUMO-tagged | – | Kd | 34.2 ± 14 µM |
